Experimental data collected from several papers.
Compare with care: the assays were run in different laboratories. Numbers after ± are the reported error.

Structure (SMILES)	assay	test system	setting	AUC(0-24)
CC(=O)c1c(C)c2cnc(Nc3ccc(N4CCNCC4)cn3)nc2n(C2CCCC2)c1=O	noncompartmental LC-MS/MS	human patients, plasma	oral, 125 mg, cycle 1 day 15, with: neratinib 240 mg	3450 ng·h/mL
Cn1c(=O)oc2ccc(-c3ccc(C[C@@H](C#N)NC(=O)[C@@H]4CNCCCO4)cc3)cc21	HPLC-MS/MS	healthy male humans, plasma	oral, 25 mg	7.5 µM·h
CO[C@H]1CC[C@H](N2C(=O)CNc3ncc(-c4ccc(C(C)(C)O)nc4)nc32)CC1		human, plasma	oral, 60 mg, day -1, geometric mean	2030 ng·h/mL
COc1cc(C(=O)NC2CCN(C)CC2)c(F)cc1Nc1ncc(C(F)(F)F)c(Oc2cccc3c2C(=O)N(C)C3)n1		human patients	oral, 10 mg, cycle 1 day 1, geometric mean	0.33 µM·h
CCc1nc(C(N)=O)c(Nc2ccc(N3CCC(N4CCN(C)CC4)CC3)c(OC)c2)nc1NC1CCOCC1		human patients	oral, 450 mg once daily, cycle 1 day 15	34800 ng·h/mL
CC(=O)O.NC(=O)c1cnc(N[C@@H]2CCCC[C@@H]2N)nc1Nc1cccc(-n2nccn2)c1		human, plasma	oral, 33 mg once daily	624 ng·h/mL
N#Cc1ccc2c(c1)[C@H]1CCCN(C(=O)c3ccc4[nH]cnc4c3)[C@H]1C2		human, plasma	oral, 80 mg once daily, after first dose	55.7 µM·h
Cc1nc(-c2ccc(OCC(C)C)c(C#N)c2)sc1C(=O)O		human, plasma	oral, 20 mg once daily, with: verinurad 5 mg	2410 ng·h/mL
Cc1ccc([C@@H]2O[C@H](CO)[C@@H](O)[C@H](O)[C@H]2O)cc1Cc1ccc(-c2ccc(F)cc2)s1		human, maintenance hemodialysis patients	oral, 300 mg once daily, day 8, steady state, mean	20900 ng·h/mL
CC(C)[C@H](N)C(=O)NCCCS(=O)(=O)O		human both sexes, plasma	oral, 171 mg once daily, day 1, fasted capsule	6260 ng·h/mL
CC(=O)O[C@H]1C(=O)[C@@]2(C)[C@H]([C@H](OC(=O)c3ccccc3)[C@]3(O)C[C@H](OC(=O)[C@H](O)[C@@H](NC(=O)c4ccccc4)c4ccccc4)C(C)=C1C3(C)C)[C@]1(OC(C)=O)CO[C@@H]1C[C@@H]2O		human patients, plasma	intravenous, 80 mg/m^2, day 1	2.53 ± 1.42 µM·h
C[C@@H]1CCO[C@H]2Cn3cc(C(=O)NCc4ccc(F)cc4F)c(=O)c(O)c3C(=O)N12		human paediatric patients, weight sample B to under sample C kg, plasma	oral, 20 mg film-coated tablet, steady state, geometric mean, population PK post-hoc, N 2	28900 ng·h/mL
CC(C)(Sc1ccncc1-c1ccc(C#N)c2ccccc12)C(=O)O		human, plasma	oral, 5 mg once daily, with: febuxostat 40 mg	122 ng·h/mL
Cc1cc(Nc2cc3ncccc3c(N[C@@H]3C[C@H]4CC[C@@H](C3)N4CCC#N)n2)n[nH]1		human, plasma	10 mg, day 1	1.91 ng·h/mL

Some of these lines once more:
Structure (SMILES)	assay	test system	setting	AUC(0-24)
C[C@@H]1CCO[C@H]2Cn3cc(C(=O)NCc4ccc(F)cc4F)c(=O)c(O)c3C(=O)N12		human paediatric patients, weight sample B to under sample C kg, plasma	oral, 20 mg film-coated tablet, steady state, geometric mean, population PK post-hoc, N 2	28900 ng·h/mL
